{"data": "Measured values of several laboratories", "note": "Numbered parts are unrelated; each lists some results of a single study."}
{"data": "Study 1", "target": "Sal-like protein 4, full length isoform A (SALL4, Homo sapiens, UniProt Q9UJQ4, residues 1-1053)", "technique": "universal PBM", "molecule type": "double-stranded DNA, one strand shown", "medium": "in vitro", "concentration": "600 nM", "notes": "8-mer, flanks averaged, mean of replicates", "direction": "higher = stronger binding", "chain of UniProt Q9UJQ4 (whole entry, looked up)": "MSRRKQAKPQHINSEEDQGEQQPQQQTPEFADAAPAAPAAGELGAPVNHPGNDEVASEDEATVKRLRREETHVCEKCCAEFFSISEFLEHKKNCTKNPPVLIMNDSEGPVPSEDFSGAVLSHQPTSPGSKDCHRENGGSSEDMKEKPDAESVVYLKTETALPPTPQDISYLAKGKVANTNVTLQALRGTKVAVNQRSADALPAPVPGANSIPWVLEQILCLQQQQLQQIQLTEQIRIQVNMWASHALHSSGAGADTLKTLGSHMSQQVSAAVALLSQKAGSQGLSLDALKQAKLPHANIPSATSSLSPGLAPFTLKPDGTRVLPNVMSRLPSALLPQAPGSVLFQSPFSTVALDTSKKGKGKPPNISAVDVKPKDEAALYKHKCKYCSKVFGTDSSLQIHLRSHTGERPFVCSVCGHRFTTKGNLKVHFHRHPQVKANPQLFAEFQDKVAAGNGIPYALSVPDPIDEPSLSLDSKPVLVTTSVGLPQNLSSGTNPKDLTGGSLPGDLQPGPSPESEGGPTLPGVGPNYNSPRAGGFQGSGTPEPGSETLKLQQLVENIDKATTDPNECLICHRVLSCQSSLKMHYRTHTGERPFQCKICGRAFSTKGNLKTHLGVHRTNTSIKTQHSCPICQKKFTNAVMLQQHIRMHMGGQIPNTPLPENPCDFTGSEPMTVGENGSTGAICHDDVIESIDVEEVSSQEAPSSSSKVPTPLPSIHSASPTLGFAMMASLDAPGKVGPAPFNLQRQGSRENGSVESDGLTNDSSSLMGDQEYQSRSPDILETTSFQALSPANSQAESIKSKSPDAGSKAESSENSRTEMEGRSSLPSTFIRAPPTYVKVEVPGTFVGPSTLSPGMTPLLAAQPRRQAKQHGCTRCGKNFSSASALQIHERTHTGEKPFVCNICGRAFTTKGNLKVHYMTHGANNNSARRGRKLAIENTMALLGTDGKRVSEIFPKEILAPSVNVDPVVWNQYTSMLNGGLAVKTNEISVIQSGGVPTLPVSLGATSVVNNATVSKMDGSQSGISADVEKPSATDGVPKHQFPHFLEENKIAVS"}
{"Sequence": "CCTCATGA", "E-score": 0.0022}
{"Sequence": "TACAGACA", "E-score": 0.2}
{"Sequence": "GCAGGCGC", "E-score": -0.294}
{"Sequence": "AGTACGAG", "E-score": 0.152}
{"Sequence": "CTTCAATC", "E-score": 0.103}
{"Sequence": "CCCAGGCG", "E-score": -0.306}
{"Sequence": "AGCATCGA", "E-score": 0.0809}
{"Sequence": "AAGCGTGG", "E-score": -0.226}
{"data": "Study 2", "target": "TAR DNA-binding protein 43, full length, His tag (TARDBP, Homo sapiens, UniProt Q13148, residues 1-414)", "technique": "RNA Bind-n-Seq", "molecule type": "RNA", "medium": "in vitro", "concentration": "20 nM", "notes": "6-mer, flanks averaged, single round", "together with": "150 mM KCl", "reference": "input library", "direction": "higher = stronger binding"}
{"Sequence": "GGGUCU", "6-mer enrichment (R)": 1.76}
{"Sequence": "AGUAAA", "6-mer enrichment (R)": 0.67}
{"Sequence": "AAGAGG", "6-mer enrichment (R)": 1.9}
{"Sequence": "UGUAGU", "6-mer enrichment (R)": 0.889}
{"Sequence": "UCGCGC", "6-mer enrichment (R)": 0.807}
{"Sequence": "CGUAGC", "6-mer enrichment (R)": 0.773}
{"Sequence": "GUACCC", "6-mer enrichment (R)": 0.681}
{"Sequence": "GUUAAG", "6-mer enrichment (R)": 0.879}
{"data": "Mixed results"}
{"Structure (SMILES)": "COCc1nc2cnc3cc(-c4c(C)noc4C)c(OC[C@H]4CCNC4)cc3c2n1[C@H](C)c1ccccc1", "tested on": "GABAA receptor", "assay": "binding", "quantity": "Ki", "result": "1.6 µM"}
{"Structure (SMILES)": "CC(C)n1cnc(-c2ccc(F)cc2)c1-c1ncc(C(=O)Nc2ccc(N3CCN(C)CC3)cc2)[nH]1", "assay": "phase 2a trial", "system": "idiopathic pulmonary fibrosis patients", "conditions": "60 mg once daily, adverse event grade 5", "quantity": "patients with ALT increased", "result": "0%"}
{"note": "A few entries again (study 1):"}
{"Sequence": "CCCAGGCG", "E-score": -0.306}
